Results of several laboratories.
Lines come from different studies, so protocols differ. Values joined by “and” are separate records of one study, mostly repeats; a detail may differ.
Target: Serine/threonine-protein kinase TAO2 (TAOK2, Homo sapiens, UniProt Q9UL54)

The remaining binding of Nc1ncc2c(n1)-c1c([nH]c3ccc(C4=CCOCC4)cc13)CCC2 is reported as 87% (binding, competition with immobilised ligand; 1 µM).
Cc1cnc2nc1Nc1cccc(c1)COC/C=C/COCc1cc(ccc1OCCN1CCOCC1)N2 has a remaining binding of 100% (binding, competition with immobilised ligand; 0.1 µM).
COc1cc(Nc2nc(C)cc(-c3cnn4nc(OC)ccc34)n2)cc(C(F)(F)F)c1 gave a remaining binding of 77% (binding, competition with immobilised ligand; 1 µM).
O=C=[N][Ru-4]123([n]4c5ccc(O)cc5c5c6c(c7cc(F)c[n+]1c7c54)C(=O)NC6=O)[S+]1CC[S+]2CC[S+]3CC1 (stereo not shown) gave a remaining activity of 103% (enzyme activity; 100 nM, human enzyme, with: 10 µM ATP; relative to: untreated).
COCC12C(=O)NC3C4(C(OC)CC1O)C1CC5(O)C(OC)C(O)C(OC(C)=O)(C1C5OC(=O)c1ccccc1)C3(O)C(OC)C24 (stereo not shown) has a remaining activity of 99% and 129% (kinase activity, inhibitor, ProQinase kinase profiling; 25 µM; relative to: control).
CNC(=O)C[C@H](Cc1ccc(C#N)cc1)NC(=O)c1cc(-c2ccc(CN[C@H](C)c3ccc(C)cc3)o2)ccc1Cl — result for “activity vs control”: 105% (enzyme activity, inhibitor; 1 µM).
For CCn1cc(C(=O)O)c(=O)c2c(N)c(F)c(NC3CCCCC3)cc21, the inhibition was 5.4% (kinase activity; 0.1 µM, with: ATP at Km).
With Nc1ncc(-c2cc(-c3cnn(CC(F)(F)F)c3)ncc2F)nc1C(=O)NC1CNCC(F)C1 (stereo not shown) the remaining activity was 77.7% (enzyme activity; 1 µM; relative to: DMSO control).
For CS(=O)(=O)Nc1cccc(-c2csc3cnc(Nc4ccc(N5CCN(CCCCCOc6cccc7c6C(=O)N(C6CCC(=O)NC6=O)C7=O)CC5)cc4)nc23)c1 (stereo not shown), the inhibition was -16.4% (probe labelling, inhibitor, KiNativ chemoproteomics; MOLT-4; 1 µM).
The inhibition of NC(=O)[C@@H](O)C[C@H]1CCc2sc3ncnc(O[C@H]4CC[C@H](N5CCOCC5)CC4)c3c21 is reported as 0% (radioisotope kinase; 10 µM).
The inhibition of C=CC(=O)Nc1cccc(-c2cnc3[nH]cc(C(=O)NC(C)(C)C)c3n2)c1 is reported as 5% and 7% (kinase activity; 0.1 µM).
The inhibition of Cc1cccc(O[C@H]2CCC[C@@H](C(C)CNCc3ccncc3)C2)c1 (relative stereo) is reported as -7% (enzyme activity, inhibitor; 10 µM).
The remaining binding of CNC(=O)C1CCN(c2cc(C)c(F)cc2NC(=O)c2ccc(-c3cc(O)ccc3C)c(C)c2)CC1 is reported as 95% (binding, competition with immobilised ligand; 1 µM).
For Cc1[nH]nc2c1N=C(c1ccccc1Cl)c1cnc(N3CCOCC3)cc1N2, the inhibition was 29.3% (enzyme activity, inhibitor; 0.5 µM).
COc1ccc(NC(=O)Nc2ccc3c(c2)C(=O)N(C(C)CO)CC(C)C(CN(C)Cc2ccc4c(c2)OCO4)O3)cc1 (stereo not shown) has a remaining activity of 104% (kinase activity, KinaseProfiler; 0.03 µM, species human; relative to: control).
COc1c(Cl)cccc1Nc1c(-c2ccncc2C#C[C@@]2(C)CCCN2C(=O)/C=C/CN(C)C)[nH]c2c1C(=O)NCC2 gave a remaining binding of 30% (binding, competition with immobilised ligand; 3 µM).

Repeated from above:
COc1cc(Nc2nc(C)cc(-c3cnn4nc(OC)ccc34)n2)cc(C(F)(F)F)c1 gave a remaining binding of 77% (binding, competition with immobilised ligand; 1 µM).
The remaining binding of Nc1ncc2c(n1)-c1c([nH]c3ccc(C4=CCOCC4)cc13)CCC2 is reported as 87% (binding, competition with immobilised ligand; 1 µM).
